Measured values gathered from unrelated publications.
A part holds a random share of what one study measured.

Set 1 — organism: Sarcocystis neurona; effect on: parasite growth; concentration: 10 µM; time: 96 h; notes: second screen; baseline: untreated; endpoint: log2 fold change
C[C@]12CC[C@H](O)CC1=CC[C@@H]1[C@@H]2CC[C@]2(C)C(=O)CC[C@@H]12: 0.2
CC[C@@H](C(N)=O)N1CCCC1=O: 0.29
NCCc1ccccn1: 0.16
C=CCN1CC[C@]23c4c5ccc(O)c4O[C@H]2C(=O)CC[C@@]3(O)[C@H]1C5: 0.1
CCc1nc(N)nc(N)c1-c1ccc(Cl)cc1: -1.54
NC(=NCc1ccc(Cl)cc1)SCCCc1cnc[nH]1: 0.29
Oc1ccc2c3c1O[C@H]1[C@@H](O)CC[C@@]4(O)[C@@H](C2)N(CC2CCC2)CC[C@]314: 0.56
COc1cc2c(cc1OC)[C@@]13CCN4CC5=CCO[C@H]6CC(=O)N2[C@H]1[C@H]6[C@H]5C[C@H]43: 0.28
CC(O)(CS(=O)(=O)c1ccc(F)cc1)C(=O)Nc1ccc(C#N)c(C(F)(F)F)c1 (centres unmarked): 0.34

Set 2 — cell line: HEK-293T-ACE2-TMPRSS2; method: cell count; concentration: 10 µM; endpoint: viability
CCc1ccc(OCc2ccccc2C(=O)Nc2ccc3nc(C)cc(N)c3c2)cc1: 126%
CN(C)c1ncc2c(n1)CCCC2NC1CCN(c2ccccc2F)CC1 (centres unmarked): 114%
O=C(NCCc1csc(-c2ccccc2)n1)[C@H]1CCCN1C(=O)c1ccco1: 70%
O=C(N[C@@H]1CN(Cc2c[nH]c3ccccc23)C[C@H]1CO)c1ccccc1: 109%
CCCN(CCC)c1nc(N)ncc1[N+](=O)[O-]: 252%
OC(CNCC1COc2ccccc2C1)COc1ccc(Cl)cc1Cl (centres unmarked): 88%
COc1cccc(Cl)c1-c1csc(C(N)=O)c1: 69%
Cc1cc(-n2c(C)cc(C(=O)Cn3ncc(Cl)c(Cl)c3=O)c2C)no1: 71%
Fc1ccc(NC2=NCCCCC2)cc1: 79%
OC(Cc1ccccc1)c1ccc2c(c1)CN(Cc1ccc3ccccc3n1)CCO2 (centres unmarked): 91%
CCc1cc2c(C)cc(=O)oc2cc1O: 69%
Cc1cccc(NC(=O)CCC2CCN(C(=O)C3=NN(C)C(=O)CC3)CC2)c1: 111%
Cc1cc(C(=O)N2C[C@@H](COCC3CC3)[C@H](c3ccncc3)C2)c(C)o1: 102%
O=C(c1ccc(-n2c(-c3ccccc3)nc3cccnc32)cc1)N1CCN(c2ccccn2)CC1: 78%
COc1ccc(N2CCN(C(=O)c3nc(S(C)(=O)=O)ncc3Cl)CC2)cc1: 76%
CCCNC(=O)C1CCCN1C(=O)c1ccc(NC(=O)C(C)(C)C)cc1 (centres unmarked): 87%
CNC(=O)CC1C(=O)NCCN1C(=O)c1cc2ccccc2n1C (centres unmarked): 74%
Cc1ccc2oc(C(=O)NCC3COc4ccccc4O3)c(C)c2c1 (centres unmarked): 108%
Cc1ccc(CNC(=O)c2cccc(Nc3ccc(-c4ccc(F)cc4)nn3)c2)o1: 67%
Cn1ccnc1C(=O)C1CCCN(C(=O)c2cc(COc3ccc(F)c(F)c3)on2)C1 (centres unmarked): 100%
c1csc(-c2csc3nc(CN4CCOCC4)nc(Sc4nnc(C5CC5)o4)c23)c1: 67%
CC(C)CCNC(=O)C1CCCN1C(=O)c1ccc(NS(C)(=O)=O)cc1 (centres unmarked): 85%
CC1=C(O)C(=O)C=C2C1=CC=C1[C@@]2(C)CC[C@@]2(C)[C@@H]3C[C@](C)(C(=O)O)CC[C@]3(C)CC[C@]12C: 138%
CC(Cc1c[nH]c2ccccc12)NC(=O)Cn1ccc2cc(Br)ccc21 (centres unmarked): 102%
Cc1cc2oc(=O)cc(C)c2cc1NC(=O)COCC(F)(F)C(F)F: 66%

Set 3 — effect on: binding; method: radioligand binding; concentration: 10 µM; endpoint: inhibition
Target: Sodium-dependent serotonin transporter (SLC6A4, Homo sapiens, UniProt P31645)
Sequence of UniProt P31645 (whole entry, looked up): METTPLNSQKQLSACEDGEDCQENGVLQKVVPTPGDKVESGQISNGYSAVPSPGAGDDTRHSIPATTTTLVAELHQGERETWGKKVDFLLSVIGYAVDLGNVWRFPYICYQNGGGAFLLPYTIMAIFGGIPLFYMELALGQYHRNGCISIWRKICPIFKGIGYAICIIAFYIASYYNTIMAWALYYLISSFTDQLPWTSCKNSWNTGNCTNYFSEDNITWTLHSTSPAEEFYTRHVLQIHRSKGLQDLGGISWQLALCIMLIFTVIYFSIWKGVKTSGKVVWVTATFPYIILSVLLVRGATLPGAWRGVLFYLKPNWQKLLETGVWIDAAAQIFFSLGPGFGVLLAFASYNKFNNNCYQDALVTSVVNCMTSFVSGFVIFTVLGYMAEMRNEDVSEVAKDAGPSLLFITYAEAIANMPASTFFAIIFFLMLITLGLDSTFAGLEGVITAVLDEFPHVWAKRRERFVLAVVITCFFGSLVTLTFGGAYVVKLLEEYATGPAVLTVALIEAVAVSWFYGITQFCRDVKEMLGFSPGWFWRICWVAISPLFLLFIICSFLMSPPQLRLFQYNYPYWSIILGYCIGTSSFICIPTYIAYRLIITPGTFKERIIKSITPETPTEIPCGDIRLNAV
COCCc1ccc(-c2c(C)nc3c(N4CCOCC4)ccnn23)cn1: 0.57%
COCc1nc2cnc3cc(-c4c(C)noc4C)c(OC[C@H]4CCNC4)cc3c2n1[C@H](C)c1ccccc1: 10.7%
C[C@H](NC(=O)c1cnc2n1[C@](C)(Cc1ccc(C#N)cc1)C(=O)N2c1cc(Cl)c(F)c(Cl)c1)C(=O)NC1(c2ccccn2)CC1: -4.33%
COc1cc(-c2cn(C3CCc4ccccc4N(CC(F)(F)F)C3=O)nn2)ccc1-n1ccc(C)n1 (centres unmarked): 90.6%
Cc1cc(-n2nc(Cc3cc(F)cc(C(F)(F)F)c3)nc2C)ccc1C(N)=O: -1.29%
C[C@@]1(Cc2ccc(C#N)cc2)C(=O)N(c2cc(Cl)cc(Cl)c2)c2ncc(C(=O)NC3(c4nc(C5CCC5)no4)CC3)n21: 5.35%
CC(=O)c1c(NS(C)(=O)=O)c2cc(-c3ccc(Cl)cc3)c(-c3ccc(Cl)cc3Cl)nc2n(C)c1=O: -18.6%
O=C1CCc2cc(Nc3cc(OC4CCOCC4)c([N+](=O)[O-])cc3Cl)ccc2N1: 23.5%
Cc1nccc(COC(=O)N2C[C@@H]3[C@@H](CNC(=O)c4ccc5[nH]nnc5c4)[C@@H]3C2)n1: -3.25%
CN1C(=O)[C@@H](N2CCc3c(nn(Cc4ccccc4)c3Br)C2=O)COc2ccccc21: 22.6%
Nc1c(C(=O)NCc2ccc(C(=O)NCCCC3CCCCC3)cc2)cnn1-c1ccccc1: 7.75%
CC(=O)Nc1nc(CN2CCC[C@H](Cc3cc(C)nc(C)c3)C2)cs1: 52.3%
CN([C@@H]1CCc2c(CC(=O)O)c3cc(S(C)(=O)=O)ccc3n2C1)S(=O)(=O)c1ccc(F)cc1: 5.16%
CC1=C(C#N)C(c2ccc3c(c2)c(NC(=O)c2ccccc2C)nn3C)C(C#N)=C(C)N1: -6.29%
CN(C)C(=O)Cn1cc(-c2nc([C@@](C)(c3ccc(-c4cnc(N)nc4)cc3)C3CC3)no2)cn1: 6.28%
CNC(=O)c1cc(C(=O)NC2CC2)cn(Cc2ccccc2)c1=O: -15.9%
CN1CCN(C(=O)C(C)(C)c2ccc(C(=O)Nc3cn4cc(-c5ccncc5)ccc4n3)cc2)CC1: -3.55%
CCCOc1ccc([C@H]2[C@H](C(=O)O)[C@@H](c3ccc4c(c3)OCO4)CN2CC(=O)Nc2c(CC)cccc2CC)cc1: 10.6%
O=C(Nc1ccc(-n2nc(-c3cccnc3)cc2C(F)(F)F)cn1)c1ccc(-c2ccccc2)c(F)c1: 9.16%
Cc1nc(Cc2cccc(C(F)(F)F)c2)sc1-c1ccc(C(N)=O)nc1: -7.18%
O=C1c2ccc(Nc3ccc(F)cc3F)cc2CCc2ccc(OC[C@H](O)CO)cc21: 20.7%
CC1=C(C#N)[C@@H](c2ccc3[nH]nc(C)c3c2)C(C#N)=C(c2ccc(Cl)cc2)N1: -11.3%
c1ccc(C2CCN(c3cnc4c(N5CCOCC5)nccn34)CC2)cc1: 3.12%
Cc1c(N2CCCC2)nc2ccc(Br)cc2c1C(=O)NC[C@H](CCC(=O)O)c1ccccc1Cl: -7.59%

Set 4 — cell line: HEK-293T/ACE2; concentration: concentration not given; time: 16 (unit not given); baseline: vehicle; endpoint: viability
C#C[C@]1(O)CC[C@H]2[C@@H]3CCc4cc(OC)ccc4[C@H]3CC[C@@]21C: 103%
CC(=O)CCCCn1c(=O)c2c(ncn2C)n(C)c1=O: 79.8%
Nc1ccn([C@@H]2O[C@H](CO)[C@@H](O)C2(F)F)c(=O)n1: 84.7%
COCC(=O)Nc1c(I)c(C(=O)NCC(O)CO)c(I)c(C(=O)N(C)CC(O)CO)c1I (centres unmarked): 99.4%
OCCOCCN1CCN(C(c2ccccc2)c2ccc(Cl)cc2)CC1 (centres unmarked): 84%
COc1cccc2c1C(=O)c1c(O)c3c(c(O)c1C2=O)C[C@@](O)(C(=O)CO)C[C@@H]3O[C@H]1C[C@H](N)[C@@H](O)[C@H](C)O1: 79.3%
CC(=O)OCC(=O)[C@@]12OC3(CCCC3)O[C@@H]1C[C@H]1[C@@H]3CCC4=CC(=O)C=C[C@]4(C)[C@@]3(F)[C@@H](O)C[C@@]12C: 99.9%
CC(C)(Sc1cc(C(C)(C)C)c(O)c(C(C)(C)C)c1)Sc1cc(C(C)(C)C)c(O)c(C(C)(C)C)c1: 102%
NC(=O)N1c2ccccc2CC(=O)c2ccccc21: 96.4%
CN(C)C(=O)Oc1cccc([N+](C)(C)C)c1: 102%
[H]/N=C(/N)N[C@H]1[C@H](O)[C@@H](O)[C@H](O[C@@H]2O[C@@H](C)[C@](O)(C=O)[C@H]2O[C@@H]2O[C@@H](CO)[C@H](O)[C@@H](O)[C@@H]2NC)[C@@H](N/C(N)=N\[H])[C@@H]1O: 98.9%
CCCCNc1cc(C(=O)O)cc(S(N)(=O)=O)c1Oc1ccccc1: 96.8%
CCOc1ccccc1OCCN[C@H](C)Cc1ccc(OC)c(S(N)(=O)=O)c1: 100%

Repeated from above (set 2):
Cc1cc(-n2c(C)cc(C(=O)Cn3ncc(Cl)c(Cl)c3=O)c2C)no1: 71%
CCc1cc2c(C)cc(=O)oc2cc1O: 69%
OC(CNCC1COc2ccccc2C1)COc1ccc(Cl)cc1Cl (centres unmarked): 88%
Cc1cc(C(=O)N2C[C@@H](COCC3CC3)[C@H](c3ccncc3)C2)c(C)o1: 102%
O=C(N[C@@H]1CN(Cc2c[nH]c3ccccc23)C[C@H]1CO)c1ccccc1: 109%
Cc1cc2oc(=O)cc(C)c2cc1NC(=O)COCC(F)(F)C(F)F: 66%
